Measurements pooled from the literature.
Protocols differ between the studies behind these lines. Several values in a cell are separate wells, animals, samples, runs or records. ± marks the error that the study gave. Converted amounts (≈) assume the structure as drawn.
CDK2 with cyclin A: Cyclin-dependent kinase 2, with cyclin A (CDK2, Homo sapiens, UniProt P24941)

For `Cn1cc(-c2ccc(-c3cncc(Cl)c3N3CCC4(CCNC4=O)CC3)cc2)cn1`, “log2 fold change” read -2.28 (COLO 205; gene expression, microarray, measured: EGFR mRNA; concentration not given, 6 h; reference: untreated cells).
Under “log2 fold change”, `Oc1ccccc1-c1n[nH]cc1-c1ccnc2ccccc12` is recorded as 0.06 (CKA2 (Candida albicans); kinase binding, MIB/MS competition; Candida albicans lysate; 1 µM; reference: DMSO).
Under “log2 fold change”, `N#Cc1ccc2c(-c3ccncc3)c(-c3ccc(F)cc3)nn2c1` is recorded as -0.0685 (orf19.6492 kinase Candida albicans; MIB/MS competition binding; Candida albicans cell lysate; 1 µM; reference: DMSO, lower = stronger binding).
For `C[C@H](Oc1ccc(Br)cc1-c1ccon1)C(=O)O`, “difference from placebo” read 7.75% (response peak; human, tibialis anterior muscle; 100 mg, 30 Hz+30 s).
`CCn1cc(-c2cc(Cn3ccnc3)cc3c2CCN([C@H](c2cc(OC)ccn2)C2CC2)C3=O)c(C(F)(F)F)n1` gave an EC50 of > 30 µM (CA46; cell growth, inhibitor; 120 h).
`CC(C)NCC(O)c1ccc(O)c(O)c1` (centres unmarked) has a sarcomere length of 1.72 µm (ventricular cardiomyocytes, C57BL/6 mouse; dose not given, 0.06 s).
`COc1cc(C(=O)NS(=O)(=O)c2ccccc2C)ccc1Cc1cn(C)c2ccc(NC(=O)OC3CCCC3)cc12` has an inhibition of 32.6% and 64.2% and 34.2% and -2.6% and 18.1% (native VRAC; ion current, inhibitor, whole-cell patch clamp; wild-type HCT cells; 10 µM, pH 7.4, extracellular pH).
Under “log2 fold change”, `Cc1n[nH]c2ccc(-c3cc(OC[C@@H](N)Cc4ccccc4)cnc3-c3ccoc3)cc12` is recorded as -0.112 (orf19.4144 kinase Candida albicans; MIB/MS competition binding; Candida albicans cell lysate; 1 µM; reference: DMSO, lower = stronger binding).
`CNCc1ccc(-c2[nH]c3cc(F)cc4c3c2CCNC4=O)cc1` has a cough incidence of 33.3% (patients; oral, 240 mg twice daily, all grades).
`O=C(O)CC[C@H](NC(=O)N[C@@H](CCCCNC(=O)[C@H](Cc1ccc2ccccc2c1)NC(=O)CCCCCNC(=O)CN1CCN(CC(=O)O)CCN(CC(=O)O)CCN(CC(=O)O)CC1)C(=O)O)C(=O)O` [gallium-68 labelled] gave a tissue uptake of 4.59 ± 2.06 %ID/g (gamma counting; mouse, 22Rv1 xenograft, heart; intravenous, 3.7 MBq, 2 h).
For `CCc1nnc(NS(=O)(=O)c2ccc(NC(=O)c3ccc(F)cc3)cc2)s1`, the Kd was > 100 µM (CDK2 with cyclin A).
With `CN[C@H](CC(C)C)C(=O)N[C@H]1C(=O)N[C@@H](CC(N)=O)C(=O)N[C@H]2C(=O)N[C@H]3C(=O)N[C@H](C(=O)N[C@H](C(=O)O)c4cc(O)cc(O)c4-c4cc3ccc4O)[C@H](O)c3ccc(c(Cl)c3)Oc3cc2cc(c3O[C@@H]2O[C@H](CO)[C@@H](O)[C@H](O)[C@H]2O[C@H]2C[C@](C)(N)[C@H](O)[C@H](C)O2)Oc2ccc(cc2Cl)[C@H]1O` the ED50 was 23.9 mg/kg (Enterococcus faecium; -9, compound-intermediate, mouse systemic infection; intravenous; survival).
With `CC(C)C[C@H](NC(=O)C[C@H](O)[C@H](CC(C)C)NC(=O)[C@H](Cc1c[nH]cn1)NC(=O)CNC(=O)[C@@H](NC(=O)[C@H](C)NC(=O)[C@H](Cc1c[nH]c2ccccc12)NC(=O)[C@H](CCC(N)=O)NC(=O)[C@@H](Cc1ccccc1)NC(=O)COCCOCCNC(=O)CCC(C(=O)O)N1CCN(CC(=O)O)CCN(CC(=O)O)CCN(CC(=O)O)CC1)C(C)C)C(N)=O` (some centres unmarked) [lutetium-177 labelled] the tissue uptake was 0.03 ± 0.02 %ID/g (female BALB/c nu/nu mice, stomach; intravenous, 50 pmol, 24 h).
Under “change from baseline”, `NC(=O)c1cnc2[nH]ccc2c1N[C@@H]1[C@@H]2CC3C[C@H]1C[C@@](O)(C3)C2` is recorded as 0.38% (flow cytometry, measured: CD4+ effector memory T cells; Japanese healthy subjects, peripheral blood; oral, 100 mg twice daily, day 4).
With `CC/C(=N\NC(=O)NCc1cccc(O)c1)c1ccc(O)c(C)c1O` the log ratio was -4.6 (SK-OV-3; gene expression, microarray, measured: MMP1; 10 µM, 24 h; reference: DMSO).
`C=C[C@]1(C)C[C@@H](OC(=O)CSCCN(CC)CC)[C@]2(C)[C@H](C)CC[C@]3(CCC(=O)[C@H]32)[C@@H](C)[C@@H]1O`: “mycoplasma load reduction” 3.09 log10 CFU/mL (Mycoplasma gallisepticum; infected chickens, lung; intramuscular, 40 mg/kg; reference: 0 h).
For `CCn1cc(-c2cc(Cn3ccoc3=N)cc3c2CCN([C@@H](C)c2cc(OC)ccn2)C3=O)c(C(F)(F)F)n1`, the EC50 was 21 µM (HEC265; cell growth; 120 h).
For `c1coc(-c2n[nH]cc2-c2ccnc3ccccc23)c1`, “log2 fold change” read -0.15 (CKA2 (Candida albicans); kinase binding, MIB/MS competition; Candida albicans lysate; 10 µM; reference: DMSO).
With `COc1cnc2cccc(N3CCc4c(cc(Cn5ccnc5C)cc4-c4cn(C)nc4C(F)(F)F)C3=O)c2c1` the EC50 was 2.08 µM (BT-20; cell growth, inhibitor; 120 h).
With `O=C(N1CCc2ccccc21)n1ccnn1` the hypocotyl length was 3.24 mm and 7.64 mm and 2.52 mm and 2.65 mm and 2.7 mm and 2.46 mm (Arabidopsis thaliana; atd14-1 mutant, seedlings; 5 µM, continuous red light, together with: 1 µM (±)-GR24).
For `N#Cc1ccn2c(-c3ccncc3)c(-c3ccc(F)cc3)nc2c1`, “log2 fold change” read 0.21 (orf19.6492 kinase Candida albicans; MIB/MS competition binding; Candida albicans cell lysate; 1 µM; reference: DMSO, lower = stronger binding).
The MIC50 of `CC(=O)NC[C@H]1CN(c2ccc(N3CCOCC3)c(F)c2)C(=O)O1` is reported as 2 µg/mL (≈ 5.93 µM) (Enterococcus faecium; agar dilution; vancomycin-intermediate, 25 isolates).
For `CC(C)n1ncc2c(C(=O)NCC3(C)CNC3)cc(C3CC3)nc21`, the cell protection was 103% and 96.8% (coxsackievirus B3; CPE; Vero; 5 µM).
`c1ccc(-c2n[nH]cc2-c2ccnc3ccccc23)nc1` — result for “log2 fold change”: 1.18 (orf19.4518 kinase Candida albicans; MIB/MS competition binding; Candida albicans cell lysate; 1 µM; reference: DMSO, lower = stronger binding).
`O=C(Cc1ccccc1[N+](=O)[O-])Nc1ccccc1C(=O)N1CCOCC1` has a Kd of > 100 µM (CDK2 with cyclin A).
The GI50 of `O=C(/C=C/C=C/C=C/C1CCCCC1)NC1=C[C@@](O)(/C=C/C=C/C=C/C(=O)NC2=C(O)CCC2=O)[C@@H]2O[C@@H]2C1=O` is reported as 19.1 µM (HCC2935; cell growth, CellTiter-Glo; 78 h).

Some of these lines once more:
The GI50 of `O=C(/C=C/C=C/C=C/C1CCCCC1)NC1=C[C@@](O)(/C=C/C=C/C=C/C(=O)NC2=C(O)CCC2=O)[C@@H]2O[C@@H]2C1=O` is reported as 19.1 µM (HCC2935; cell growth, CellTiter-Glo; 78 h).
Under “log2 fold change”, `Oc1ccccc1-c1n[nH]cc1-c1ccnc2ccccc12` is recorded as 0.06 (CKA2 (Candida albicans); kinase binding, MIB/MS competition; Candida albicans lysate; 1 µM; reference: DMSO).
Under “log2 fold change”, `N#Cc1ccc2c(-c3ccncc3)c(-c3ccc(F)cc3)nn2c1` is recorded as -0.0685 (orf19.6492 kinase Candida albicans; MIB/MS competition binding; Candida albicans cell lysate; 1 µM; reference: DMSO, lower = stronger binding).
